Measurements collected from several papers.
± marks the error that the study gave.
Cell line: U-87 MG

SMILES | test | conditions | how to read | quantity | result
CCCCCCCCCCCCCCOc1c(O)cc(C(=O)O[C@@H]2Cc3c(O)cc(O)cc3O[C@@H]2c2cc(O)c(O)c(O)c2)cc1O | Western blot, refers to: BCL-XL | 50 µM, 24 h | relative to: untreated | protein level | decreased
CN(C)c1ccc(/C=C/C(=O)c2ccc(S(=O)(=O)N3CCCCCC3)cc2)cc1[N+](=O)[O-] | – | concentration not given, non-toxic concentrations | – | sphere formation | no inhibition
COc1c(Oc2c(O)c(OC)c(OC)c3c2ccc2cc(O)ccc23)cc2c(c1OC)-c1ccc(O)cc1CC2 | cell growth or viability, CCK-8 | 100 µM, 24 h | – | viability | 8.38%
CCCCCCCCCCCCOc1c(O)cc(C(=O)OC2Cc3c(O)cc(O)cc3OC2c2cc(O)c(O)c(O)c2)cc1O (stereo not shown) | Western blot, refers to: phospho-mTOR | 50 µM, 24 h | relative to: untreated | phosphorylation level | decreased
COc1ccc(-c2cc(=O)c3c(O)cc(O[C@@H]4O[C@H](CO)[C@@H](O)[C@H](O)[C@H]4O)cc3o2)cc1OC | cell growth or viability, resazurin | 72 h | – | IC50 | 33.5 µM
CC(=O)O[C@H]1C(=O)[C@]2(C)[C@@H](OC(=O)[C@H](N)CSC3CC(=O)N(CCC(=O)Nc4ccc(-c5ccc(/N=N/c6ccc7c(S(=O)(=O)O)cc(S(=O)(=O)O)c(N)c7c6O)c(C)c5)cc4C)C3=O)C[C@H]3OC[C@@]3(OC(C)=O)[C@H]2[C@H](OC(=O)c2ccccc2)[C@]2(O)C[C@H](OC(=O)[C@H](O)[C@@H](NC(=O)c3ccccc3)c3ccccc3)C(C)=C1C2(C)C (stereo partly shown) | annexin V/PI flow cytometry | concentration not given, 24 h | – | early apoptotic cells | 36.8%
Cc1ccc(C(C)C)cc1.Cl.[Cl][Ru+].[Ru+].c1ccc(-c2cn(CCCCOc3ccccc3-c3nc4ccccc4s3)nn2)nc1 | cytotoxicity, MTT | 48 h | – | IC50 | 63.3 ± 2.6 µM
CC1(C)CC(=O)C(C2C([N+](=O)[O-])=C3NCCN3c3nc4ccccc4cc32)=C(O)C1 (stereo not shown) | cell growth or viability, MTT | 24 h | – | IC50 | 18.9 µM
CCN(CC)CCNC(=O)c1c(C)[nH]c(/C=C2\C(=O)Nc3ccc(F)cc32)c1C | cell growth or viability, MTT | 72 h | – | IC50 | 8.5 µM
O=C(O[C@@H]1Cc2c(O)cc(O)cc2O[C@@H]1c1cc(O)c(O)c(O)c1)c1cc(O)c(O)c(O)c1 | cell viability, CCK-8 | 24 h | – | IC50 | 61.36 ± 0.05 µM
O=c1sn(Cc2ccccc2)c(=O)n1C1CC1 | cell viability | 72 h | – | IC50 | 7.2 ± 0.4 µM
CCCCCCOc1c(O)cc(C(=O)OC2Cc3c(O)cc(O)cc3OC2c2cc(O)c(O)c(O)c2)cc1O (stereo not shown) | cell viability, CCK-8 | 24 h | – | IC50 | 63.36 ± 0.05 µM
CC1(C)C(/C=C/C2=C(Cl)C(=C/C=C3/N(CCCCCC(=O)O)c4ccccc4C3(C)C)/C[N+](C)(C)C2)=[N+](CCCCCC(=O)O)c2ccccc21 | organelle co-localization, confocal imaging | 20 µM, 24 h, golgi | – | Pearson's correlation coefficient | 0.54

For quick reference, copied from above:
SMILES | test | conditions | how to read | quantity | result
CCCCCCCCCCCCOc1c(O)cc(C(=O)OC2Cc3c(O)cc(O)cc3OC2c2cc(O)c(O)c(O)c2)cc1O (stereo not shown) | Western blot, refers to: phospho-mTOR | 50 µM, 24 h | relative to: untreated | phosphorylation level | decreased
COc1ccc(-c2cc(=O)c3c(O)cc(O[C@@H]4O[C@H](CO)[C@@H](O)[C@H](O)[C@H]4O)cc3o2)cc1OC | cell growth or viability, resazurin | 72 h | – | IC50 | 33.5 µM
